Published values gathered from unrelated publications.
Protocols differ between the studies behind these lines. Several values in a cell are separate wells, animals, samples, runs or records.
Target: Serine/threonine-protein kinase MRCK alpha (CDC42BPA, Homo sapiens, UniProt Q5VT25)

| SMILES | assay | setting | scale | quantity | result |
| --- | --- | --- | --- | --- | --- |
| Nc1ncc2c(n1)-c1c([nH]c3ccc(C4=CCOCC4)cc13)CCC2 | binding, competition with immobilised ligand | 1 µM | – | remaining binding | 89% |
| C=CC(=O)N1CCc2ccc(-n3c(=O)ccc4cnc5ccc(-c6cnn(C)c6)cc5c43)cc21 | KINOMEscan | 1 µM | relative to: DMSO control | remaining binding | 100% |
| CNC(=O)C[C@H](Cc1ccc(C#N)cc1)NC(=O)c1cc(-c2ccc(CN[C@H](C)c3ccc(C)cc3)o2)ccc1Cl | enzyme activity, inhibitor | 1 µM | – | activity vs control | 103% |
| CCn1cc(C(=O)O)c(=O)c2c(N)c(F)c(NC3CCCCC3)cc21 | kinase activity | 0.1 µM, with: ATP at Km | – | inhibition | 1.8% |
| NC(=O)[C@@H](O)C[C@H]1CCc2sc3ncnc(O[C@H]4CC[C@H](N5CCOCC5)CC4)c3c21 | enzyme activity, inhibitor | 10 µM | – | inhibition | -3% |
| COc1cc(Nc2nccc(-c3cnn4nc(OC)ccc34)n2)cc(C(F)(F)F)c1 | binding, competition with immobilised ligand | 1 µM | – | remaining binding | 88% |
| COCC12C(=O)NC3C4(C(OC)CC1O)C1CC5(O)C(OC)C(O)C(OC(C)=O)(C1C5OC(=O)c1ccccc1)C3(O)C(OC)C24 (stereo not shown) | kinase activity, inhibitor, ProQinase kinase profiling | 25 µM | relative to: control | remaining activity | 98% and 100% |
| C=CC(=O)N1CCCC(n2c(=O)c3ncccc3n(Cc3ccc(Oc4ccccc4)cc3)c2=O)C1 (stereo not shown) | cell-free assay, competition with immobilised ligand | 1 µM | – | remaining binding | 82% |
| Nc1ncc(-c2cc(-c3cnn(CC(F)(F)F)c3)ncc2F)nc1C(=O)NC1CNCC(F)C1 (stereo not shown) | enzyme activity | 1 µM | relative to: DMSO control | remaining activity | 108% |
| Cc1nc2c(F)cc(-c3nc(Nc4ccc(CNC(=O)CCCCCCC(=O)NO)cc4)ncc3F)cc2n1C(C)C | enzyme activity, inhibitor | 1 µM | – | inhibition | 72% |
| C=CC(=O)Nc1cccc(-c2cnc3[nH]cc(C(=O)NC(C)(C)C)c3n2)c1 | kinase activity | 0.1 µM | – | inhibition | 19% |
| CN1CC[C@@H](COc2cnc(C#N)cc2-c2ccn3nc(NC(=O)C4CC4)cc3c2)C1 | enzyme activity, inhibitor | 1 µM | – | inhibition | 2% |
| Cc1cccc(O[C@H]2CCC[C@@H](C(C)CNCc3ccncc3)C2)c1 (relative stereo) | enzyme activity, inhibitor | 10 µM | – | inhibition | 5% |
| CN1CCN(Cc2ccc(-c3ccc(CO[C@H]4CCC[C@@H]4NC(=O)c4cc(-c5cnn(C)c5)cnc4N)cc3)cc2)CC1 | enzyme activity, inhibitor | 0.1 µM | – | inhibition | 12% |
| O=C=[N][Ru-4]123([n]4c5ccc(O)cc5c5c6c(c7cc(F)c[n+]1c7c54)C(=O)NC6=O)[S+]1CC[S+]2CC[S+]3CC1 (stereo not shown) | enzyme activity | 100 nM, human enzyme, with: 10 µM ATP | relative to: untreated | remaining activity | 108% |
| COc1c(Cl)cccc1Nc1c(-c2ccncc2C#C[C@@]2(C)CCCN2C(=O)/C=C/CN(C)C)[nH]c2c1C(=O)NCC2 | cell-free assay, competition with immobilised ligand | 3 µM | – | remaining binding | 100% |

Excerpt of the above:
| SMILES | assay | setting | scale | quantity | result |
| --- | --- | --- | --- | --- | --- |
| CCn1cc(C(=O)O)c(=O)c2c(N)c(F)c(NC3CCCCC3)cc21 | kinase activity | 0.1 µM, with: ATP at Km | – | inhibition | 1.8% |
| CN1CC[C@@H](COc2cnc(C#N)cc2-c2ccn3nc(NC(=O)C4CC4)cc3c2)C1 | enzyme activity, inhibitor | 1 µM | – | inhibition | 2% |
